Experimental data of several laboratories.
Numbered parts are unrelated; each lists some results of a single study. Changes are numbered by the printed parent chain.

Block 1
Target: ABI1, truncated, D143A, DHFR fusion (Arabidopsis thaliana)
Method: DHFR PCA, deep sequencing
Sample: yeast
Notes: methotrexate growth selection, single substitutions
Together with: (+)-ABA 0 µM
Reference: wild-type fitted maximum
Direction: higher = stronger binding
Endpoint: relative binding score
Parent: PYL1, truncated, DHFR fusion (Arabidopsis thaliana); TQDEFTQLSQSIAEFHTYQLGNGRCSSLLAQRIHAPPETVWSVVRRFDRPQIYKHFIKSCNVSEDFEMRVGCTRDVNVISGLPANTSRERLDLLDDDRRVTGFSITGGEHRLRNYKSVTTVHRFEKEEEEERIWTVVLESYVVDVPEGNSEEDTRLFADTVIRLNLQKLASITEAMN; partner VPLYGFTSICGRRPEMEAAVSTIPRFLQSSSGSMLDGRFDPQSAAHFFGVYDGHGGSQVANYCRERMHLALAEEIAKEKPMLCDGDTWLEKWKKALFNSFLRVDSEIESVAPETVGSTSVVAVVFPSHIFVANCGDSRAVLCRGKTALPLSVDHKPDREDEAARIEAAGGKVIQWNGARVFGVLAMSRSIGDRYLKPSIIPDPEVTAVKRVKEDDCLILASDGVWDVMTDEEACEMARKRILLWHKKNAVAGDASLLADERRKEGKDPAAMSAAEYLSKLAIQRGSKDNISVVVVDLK
E130F: 24.3%
S9A: 35.2%
G107M: 0.195%
L29S: -1.52%
H55A: 18.8%
R90A: -3.88%
A30T: 9.47%
T101I: 69.7%
L169D: 4.36%
V143D: 0.495%
S117A: 3.08%
F15K: -0.911%
V43Q: -5.9%
L112S: -2.86%
I33W: -2.47%
P83Q: 19.6%
A13H: 17.8%

Block 2
Target: Phosphate system positive regulatory protein PHO4, full length, GST-tagged (PHO4, Saccharomyces cerevisiae, UniProt P07270, residues 1-312)
Method: competition protein-binding microarray
Molecule type: double-stranded DNA, one strand shown
Sample: in vitro
Concentration: 2 µM
Notes: whole 60-bp probe, lowest competitor level
Together with: Cbf1 competitor, 0.05 µM
Direction: higher = stronger binding
Endpoint: fluorescence intensity
Residues (chain): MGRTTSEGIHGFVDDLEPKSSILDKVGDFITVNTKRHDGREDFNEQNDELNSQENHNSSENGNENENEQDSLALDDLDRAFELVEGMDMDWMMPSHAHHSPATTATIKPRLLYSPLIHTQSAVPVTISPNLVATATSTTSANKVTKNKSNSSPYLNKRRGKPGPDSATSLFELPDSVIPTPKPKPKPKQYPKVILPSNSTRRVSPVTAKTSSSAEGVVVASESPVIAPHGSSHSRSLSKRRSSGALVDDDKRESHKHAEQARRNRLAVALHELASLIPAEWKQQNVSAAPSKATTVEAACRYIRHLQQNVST
TCAATAAAATCAAGTCATTCATTGATACGAAGTTGAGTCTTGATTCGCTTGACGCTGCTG: 3090 a.u.
AGGTCTTTGCGTAGGATTGTATAAGCCCGGCCATTGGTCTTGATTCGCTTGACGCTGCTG: 2440 a.u.
CCGCGTTGAGCAGCTCTCCTGCGGGCTTTCACAGAGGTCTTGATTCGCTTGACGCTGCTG: 4130 a.u.
CTGTGCCACCATTTGCACGTTGGCATCCGCGTCCTTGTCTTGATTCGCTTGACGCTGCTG: 12700 a.u.
AGATGTAACCCAACCGTTGTGACGGTCCAAGGTACCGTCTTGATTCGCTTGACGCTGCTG: 3230 a.u.
CCGGTCCCCCGATCCCATGCGCCAGGCGCGCCGGCAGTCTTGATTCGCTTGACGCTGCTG: 5510 a.u.
AAATTACTAAGTTGCACAGTGGGTGACGCCGTATGAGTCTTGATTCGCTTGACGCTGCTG: 4430 a.u.
TTTCCACAAACTCACCACGTTGAGAGTGTGTGTATAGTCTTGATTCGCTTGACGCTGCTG: 12200 a.u.
TCGCAGATGCCATATCCCGTGCCAGATATACTATAAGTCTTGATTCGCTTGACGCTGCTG: 8490 a.u.
GAAATAAAAGTACCTTCCGTGATGGTCTTGGTACCAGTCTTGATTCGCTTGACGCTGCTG: 3470 a.u.
CTAACGAAGGTTTGCGCTGTGGGTGACAAGCCAAGTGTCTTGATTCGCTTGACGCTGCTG: 3420 a.u.
AAAGCGGTAATTTGTCACACAACTTCACATATCTATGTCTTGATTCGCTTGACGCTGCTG: 4570 a.u.
TGTAACAAGGAACAACGCGTGCTAACAAGCGGTAATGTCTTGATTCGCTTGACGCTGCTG: 11900 a.u.
CTAACGAAGGTTTGACGCGTGGGTGACAAGCCAAGTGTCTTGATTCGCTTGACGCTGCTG: 9790 a.u.
AACACACAGGGAAAGCACGATAAAAGGATACATAAGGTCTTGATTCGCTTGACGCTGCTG: 7230 a.u.
CGGGGTTAAGTTTGTCACCGCACTTGCTTGCAGCAGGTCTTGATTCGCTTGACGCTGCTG: 3190 a.u.
AAAGCGGTAATTTGCGCAGTGGGTGCAGATATCTATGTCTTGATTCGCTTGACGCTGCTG: 3780 a.u.
GGTTTTTGAAATCATACCTGCCAAGCTTGCTGCACTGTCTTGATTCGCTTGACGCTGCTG: 3330 a.u.

Block 3
Target: DBP, bZIP domain (human)
Method: DHFR protein complementation
Sample: yeast
Notes: single substitutions, most at no-binding floor
Reference: wild-type JUN-FOS pair
Direction: higher = stronger binding
Endpoint: binding fitness
Parent: JUN, bZIP domain (human); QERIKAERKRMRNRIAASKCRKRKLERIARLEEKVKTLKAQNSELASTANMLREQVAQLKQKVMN; partner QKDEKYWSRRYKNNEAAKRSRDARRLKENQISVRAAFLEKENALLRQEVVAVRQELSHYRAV
L31F: -1.44 natural log
R53M: -1.47 natural log
T48M: -1.46 natural log
M51H: -1.56 natural log
Q55K: -1.22 natural log
S43M: -1.49 natural log
S43K: -1.08 natural log
T37H: -1.3 natural log
A29E: -1.51 natural log
M51N: -1.37 natural log
S47M: -1.13 natural log
K39Y: -1.54 natural log
S43Q: -1.41 natural log
Q55A: -1.47 natural log
S43H: -1.62 natural log
A49V: -1.42 natural log
A46I: -1.39 natural log
K39N: -1.43 natural log
N42V: -1.53 natural log
R30T: -1.47 natural log
E54S: -1.46 natural log
Q41N: -1.52 natural log
A46H: -1.48 natural log
M51K: -1.48 natural log
K36A: -1.38 natural log

Block 4
Target: RNA binding protein fox-1 homolog 2, RRM domain, GST-SBP tag (RBFOX2, Homo sapiens, UniProt O43251-10, residues 100-194)
Method: RNA Bind-n-Seq
Molecule type: RNA
Sample: in vitro
Concentration: 365 nM
Notes: natural RNA segment, single round, ends assumed
Reference: no-protein control
Direction: higher = stronger binding
Endpoint: RBNS enrichment (R)
Construct (chain): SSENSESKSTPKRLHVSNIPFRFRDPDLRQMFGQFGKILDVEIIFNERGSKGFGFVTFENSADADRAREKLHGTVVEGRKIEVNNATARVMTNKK
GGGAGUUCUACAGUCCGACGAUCUGUCUUUAAGAAAAAGAAAUCAAUCUGCAGAAAUGUGAAGAUUUGCAAGCAGUGUAAACUGCAACUAGUGAUGUAAAUGUGCUAUUACCUAGGUAACUGCAUAUAUAUAAUGGAAUUCUCGGGUGCCAA: 0.713
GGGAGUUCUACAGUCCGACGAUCGGAUACCAGGAGGUAUUUGGGAAGGCCAAUGGCGUGGCUCCUUUGAGGAAAUAAAACACUAAGCAUGAGCCGGCUCCGCCUCUUCUGUCUCCGCUUUCAUCCCAGGGCACUGGAAUUCUCGGGUGCCAA: 0.774
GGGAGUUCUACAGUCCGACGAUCCACUAAAUUUCUAAAAACUGUAUUCAUGGGCUGCUGAGAUGGCUCACAAGAAAAGCACUUGCUGCCAACUGGAUGACUUGAGUUUGUUCCCUGGGACCCAAAUGGAAGGGUGGAAUUCUCGGGUGCCAA: 0.501
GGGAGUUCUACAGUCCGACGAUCCCAGCAAGGGUGACUCACUAGACUCAGGAUGUAGCCUGAGCAGUGUCACCCAGAGUAGCGGCUGCCCUGGUAGCCGAGAGCAGGCAAGGCUCUAAGAGCACUGUGCUUGGUGGAAUUCUCGGGUGCCAA: 0.266
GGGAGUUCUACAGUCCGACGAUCAUGGAAUGUGAGCCACAUCUGUACUCUAAACUUUCCUAAUAACUGUGUUAAACAAGAACAACAAAAAAAGGUCUCAUUGUGUAGCCCUAGCUGCUUAUAACUCGCUCUGUUGGAAUUCUCGGGUGCCAA: 0.318
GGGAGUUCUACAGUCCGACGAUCUCAUACUAUUGAGAGAGAAGUUAUAAGAAAUGCAUUUCAAAAUUUGGUCCCGAAUUCCAAAAUCCCAAUUGUGGCCAUUUUAGUUCUUGCCAUCCUAUUCUUGGCUCAUCUGGAAUUCUCGGGUGCCAA: 0.66
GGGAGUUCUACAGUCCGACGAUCCAGACUGUUAACACCACAGUCCUUAGCAGUGGUCAAUGUCCAGUUCCCCCGCACAGGUCCUGCUUCACUCACAUCCUCACCCGCUGCCAAGGUGGCGGUUUGUGCUUGCAUGGAAUUCUCGGGUGCCAA: 0.534
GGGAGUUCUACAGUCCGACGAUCUCUCGGCCUCUGUGGGAUUUAGGGAAGCAUUAUAAAUGCAUUAAUCCUUAUAGUCAAUUCUGUGCCUAGGAUUUUGCCAGGGAACAGUUCACUGACUAGGAAAAGCACUAUGGAAUUCUCGGGUGCCAA: 0.272
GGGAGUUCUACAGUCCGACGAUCAAGUUUUUUAAUCACUUGAAUAAAUUGAUAUAAUAAAAGGAGCCACCAGGUGGUGUGUGGAUUCUGAUCAUGGACUUAGGUCACUGCUAGGGCUUAGCAGGUGUGGCUUAUGGAAUUCUCGGGUGCCAA: 0.42
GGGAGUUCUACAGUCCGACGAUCGUGGCUCUGGCUGACGCUAAUCCUACAGCUCCCCAUUUUCUGAGAGACCAAGAACCAUGAUCAUUGCCUGCUGAAUCGGCCAGGGCCUGGCCACUCUGUGAAUACAUGAUUGGAAUUCUCGGGUGCCAA: 2.72
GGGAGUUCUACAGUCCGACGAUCGGUUUAUGAUCUUAAGUUGGUAACAUAGGAAUAUGUAUUUGUCAAUUUUAGUUCACAAACAUAUCCAUAAGAAUGUUUACACAUGGCAGUAUCAAAGCAUAUAAAAUAUUUGGAAUUCUCGGGUGCCAA: 0.376
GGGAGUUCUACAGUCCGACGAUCUGACAAGGGCAGGCCUUGAAUUGGGAGCAGCAGCCACCUGGCCUCACUCUGGCCACAGGUGACACUUGGUCCUUGCUGCCACCUGCUUGGGGCUAUGUGGCUACGGCUACUGGAAUUCUCGGGUGCCAA: 0.318

Block 5
Target: CCND3, cyclin fold, Cln2 fusion (human)
Method: yeast growth competition, sequencing
Sample: yeast
Notes: weak parent motif
Reference: not given
Direction: higher = stronger binding
Endpoint: normalised enrichment score
Parent: DOT1L docking peptide (human); SEAKRRIVFTITT; partner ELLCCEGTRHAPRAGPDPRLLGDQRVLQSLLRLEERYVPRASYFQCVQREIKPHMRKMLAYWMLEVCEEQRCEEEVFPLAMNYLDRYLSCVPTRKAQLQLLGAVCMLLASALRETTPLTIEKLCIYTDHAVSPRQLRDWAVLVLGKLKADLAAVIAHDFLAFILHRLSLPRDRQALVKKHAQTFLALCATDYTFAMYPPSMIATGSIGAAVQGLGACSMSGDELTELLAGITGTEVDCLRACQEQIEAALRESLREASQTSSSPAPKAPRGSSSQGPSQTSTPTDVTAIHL
S1A: 0.526
V8A: 0.314
T10A: 0.0955
R6A: -0.0281
F9A: 0.164
T12A: 0.383

Mixed results
PhoQ, residues 284 288 289 292 302 303 SMMNNA
fold induction (PhoP, residues 12 14 15 18 19 MHTVL (Escherichia coli, UniProt P23836); Sort-seq, measured: YFP reporter; E. coli; PhoQ-PhoP variant library, together with: 10 µM Mg2+; reference: high Mg2+ state, higher = stronger signaling): 19.3

Repeated from above (block 3):
L31F: -1.44 natural log
N42V: -1.53 natural log
E54S: -1.46 natural log
Q55K: -1.22 natural log
M51N: -1.37 natural log
K39Y: -1.54 natural log
